Results from different studies.
Several values in a cell are separate wells, animals, samples, runs or records. ± marks the error that the study gave. ≈ marks a conversion by molar mass, not a printed value.

SMILES	target or system	assay	system	setting	scale	endpoint	value
Cc1ccc(-c2nc(N)c3c(Nc4ccc(F)cc4)n[nH]c3n2)cc1	rhinovirus B5	viral cytopathic effect	HeLa	–	–	IC50	0.22 µM
COC1C=COC2(C)Oc3c(C)c(O)c4c(c3C2=O)C2=NC3(CCN(CC(C)C)CC3)NC2=C(NC(=O)C(C)=CC=CC(C)C(O)C(C)C(O)C(C)C(OC(=O)c2cccnc2)C1C)C4=O (centres unmarked)	Mycobacteroides abscessus	intracellular growth, visual read	THP-1 derived macrophages, ATCC 19977	–	–	IC50	0.039 µM
CC(C)CC(c1c[nH]c2ccccc12)c1c[nH]c2ccccc12	Clostridium sporogenes	microbial growth, absorbance	–	–	–	IC50	> 50 µM
CCOc1ccc(Nc2n[nH]c3nc(-c4ccccc4)nc(N)c23)cc1	rhinovirus B5	viral cytopathic effect	HeLa	–	–	IC50	75.1 µM
O=C(c1ccc(Br)c([N+](=O)[O-])c1)N1CCN(c2ccccc2F)CC1	Saccharomyces cerevisiae	microbial growth	–	–	–	IC50	< 20 µM
OC(Cn1cncn1)(Cn1cc(-[c-]2cccc2)nn1)c1ccc(F)cc1F.[Cl-].[Co+3].c1cc[cH-]c1 (racemic)	Trypanosoma cruzi	parasite growth, resazurin	–	24 h, trypomastigote	–	IC50	4.9 µM
COC1CN([C@H]2CC[C@H]([C@@]3(C)Oc4c(Cl)cc(C(=O)NCc5c(SC)cc(C)[nH]c5=O)c(C)c4O3)CC2)C1	–	RNA-seq, refers to: TRPC1	human, whole blood	dose not given, 24 h	reference: pretreatment baseline	log2 fold change	1.48
O=C(c1ccccc1)N1CCN(c2ccc(F)cc2)CC1	Saccharomyces cerevisiae	cell growth	wild type	–	–	IC50	> 200 µM
CCOC(=O)c1ccc(OCCC2CCN(c3ccc(C)nn3)CC2)cc1	Rhinovirus A	viral replication, high-content imaging	RV-A16	–	–	IC50	0.023 ± 0.022 µM
CNCc1ccc2c(c1)C[C@H](CNC(=N)N)[C@H]2NC(=O)C(=O)Nc1ccc(Cl)c(F)c1	HIV-1	pseudovirus infection, Env pseudovirus neutralisation	TZM-bl, clade B transmitted/founder	–	–	IC50	0.612 µM
COc1ccccc1N1CCN(C(=O)c2ccc(Cl)c([N+](=O)[O-])c2)CC1	Saccharomyces cerevisiae	cell growth	wild type	–	–	IC50	> 200 µM
Nc1ncc(-c2cc(-c3cnn(CC(F)(F)F)c3)ncc2F)nc1C(=O)NC1CNCC(F)C1 (centres unmarked)	DCAMKL3	KINOMEscan	–	1 µM	reference: DMSO control	remaining binding	52%
C=C(NC(=O)c1csc(-c2nc3c(cc2O)-c2nc(cs2)C(=O)NC(C(C)O)C(=O)NC(=C(C)OC)c2nc(cs2)C(=O)NC2c4nc(cs4)C(=O)NC(COC(=O)c4c5c6c(cccc6n4O)COC(=O)C(OC4CC(C)(O)C(N(C)C)C(C)O4)C2OC5)c2nc-3cs2)n1)C(N)=O (centres unmarked)	Staphylococcus epidermidis	–	methicillin-resistant, 10 isolates	serum 50%	–	MIC50	0.0312 µg/mL (≈ 0.0217 µM)
CCCCC(CC)COC(=O)CC(C(=O)OCC(CC)CCCC)S(=O)(=O)O.COC(=O)Nc1nc2cc(C(=O)c3ccccc3)ccc2[nH]1 (centres unmarked)	Cryptococcus neoformans	EUCAST broth microdilution	clinical isolate	72 h, 37 °C, RPMI with 2% glucose	–	IC50	0.312 µM
C=CC(=O)Nc1cccc(Cn2ncc3cnc(Nc4cnn(CCOC)c4)nc32)c1	human SGK	KINOMEscan	–	100 nM	reference: control	binding	75%
Cc1nc(N)c2c(Nc3ccc(F)cc3)n[nH]c2n1	rhinovirus B5	viral cytopathic effect	HeLa	–	–	IC50	79.2 µM
CN1CCCNC(=O)c2cccc(c2)C(=O)NCCCN(C)CCCNc2cccc3c2C(=O)c2cccc(c2C3=O)NCCC1	SAS	RNA-Seq, refers to: INPP4A mRNA	–	1 µM, 6 h	reference: untreated cells	log2 fold change	-0.701
c1ccc2c(Cc3c(-c4c[nH]c5ccccc45)[nH]c4ccccc34)c[nH]c2c1	Clostridium sporogenes	microbial growth, absorbance	–	–	–	IC50	> 50 µM
Nc1nc(-c2ccccc2)nc2[nH]nc(Nc3ccc(F)cc3)c12	rhinovirus B5	viral cytopathic effect	HeLa	–	–	IC50	0.04 µM
c1ccc2c(Cc3c[nH]c4ccccc34)c[nH]c2c1	Clostridium sporogenes	microbial growth, absorbance	–	–	–	IC50	> 50 µM
CN(C)CCCN(C(=O)c1nc2ccccc2s1)c1nc2ccc(F)cc2s1	Trypanosoma cruzi	reporter mRNA translation, inhibitor, refers to: Renilla luciferase mRNA	cell-free extract	concentration not given, test 3	reference: positive over negative control	translation activity	102%
Nc1nc(-c2ccc(OC(F)(F)F)cc2)nc2[nH]nc(Nc3ccccc3)c12	rhinovirus B5	viral cytopathic effect	HeLa	–	–	IC50	3.37 µM
CNS(=O)(=O)Nc1nccc(Cc2c(C)c3ccc(Oc4ncccc4F)cc3oc2=O)c1F	D1.1	cell viability, CellTiter-Glo	–	7 days	–	IC50	> 1 µM
O=C(c1ccc(Cl)cc1)N1CCN(c2ccc(F)cc2)CC1	Saccharomyces cerevisiae	cell growth	wild type	–	–	IC50	27.4 ± 3.9 µM
Nc1nc(-c2ccccc2)nc2[nH]nc(Nc3cc(F)c(F)c(F)c3)c12	rhinovirus B5	viral cytopathic effect	HeLa	–	–	IC50	0.26 µM
O=C(c1ccccc1I)N1CCN(c2ccc(F)cc2)CC1	Saccharomyces cerevisiae	microbial growth	–	–	–	IC50	> 20 µM
Cc1c(Cc2ccccc2)c(NCCN(C)C)n2c(nc3ccccc32)c1C#N	Trypanosoma cruzi	reporter mRNA translation, inhibitor, refers to: Renilla luciferase mRNA	cell-free extract	concentration not given, test 1	reference: positive over negative control	translation activity	112% and 106%
O=C(c1cc([N+](=O)[O-])ccc1Cl)N1CCN(c2ccc(F)cc2)CC1	Saccharomyces cerevisiae	cell growth	wild type	–	–	IC50	> 200 µM
O=C(N1CCc2ccccc21)n1ccnn1	Phelipanche ramosa	seed germination, inhibitor	–	together with: (±)-GR24 10 nM	–	IC50	14 µM

A few entries again:
SMILES	target or system	assay	system	setting	scale	endpoint	value
OC(Cn1cncn1)(Cn1cc(-[c-]2cccc2)nn1)c1ccc(F)cc1F.[Cl-].[Co+3].c1cc[cH-]c1 (racemic)	Trypanosoma cruzi	parasite growth, resazurin	–	24 h, trypomastigote	–	IC50	4.9 µM
C=C(NC(=O)c1csc(-c2nc3c(cc2O)-c2nc(cs2)C(=O)NC(C(C)O)C(=O)NC(=C(C)OC)c2nc(cs2)C(=O)NC2c4nc(cs4)C(=O)NC(COC(=O)c4c5c6c(cccc6n4O)COC(=O)C(OC4CC(C)(O)C(N(C)C)C(C)O4)C2OC5)c2nc-3cs2)n1)C(N)=O (centres unmarked)	Staphylococcus epidermidis	–	methicillin-resistant, 10 isolates	serum 50%	–	MIC50	0.0312 µg/mL (≈ 0.0217 µM)
O=C(c1ccc(Br)c([N+](=O)[O-])c1)N1CCN(c2ccccc2F)CC1	Saccharomyces cerevisiae	microbial growth	–	–	–	IC50	< 20 µM
CCOc1ccc(Nc2n[nH]c3nc(-c4ccccc4)nc(N)c23)cc1	rhinovirus B5	viral cytopathic effect	HeLa	–	–	IC50	75.1 µM
Cc1ccc(-c2nc(N)c3c(Nc4ccc(F)cc4)n[nH]c3n2)cc1	rhinovirus B5	viral cytopathic effect	HeLa	–	–	IC50	0.22 µM
